{"data": "Measurements pooled from the literature", "note": "Numbered parts are unrelated; each lists some results of a single study. Changes are numbered by the printed parent chain."}
{"data": "Sample 1", "target": "CCNB3, cyclin fold, Cln2 fusion (human)", "method": "yeast growth competition, sequencing", "medium": "yeast", "setting": "weak parent motif", "relative to": "not given", "direction": "higher = stronger binding", "starting sequence": "CDC6 docking peptide (human); TLKGRRLVFDNQL"}
{"Substitution": "TLKGRRLVFENQL [D10E]", "normalised enrichment score": -0.438}
{"Substitution": "TLKGRRLDFDNQL [V8D]", "normalised enrichment score": 0.374}
{"Substitution": "WLKGRRLVFDNQL [T1W]", "normalised enrichment score": 0.717}
{"Substitution": "TLKGRRLVQDNQL [F9Q]", "normalised enrichment score": 0.00315}
{"Substitution": "TLKKRRLVFDNQL [G4K]", "normalised enrichment score": -0.273}
{"Substitution": "TLKGRRLPFDNQL [V8P]", "normalised enrichment score": 0.0159}
{"Substitution": "TLKGRMLVFDNQL [R6M]", "normalised enrichment score": 0.566}
{"Substitution": "TLKGRRLVFDDQL [N11D]", "normalised enrichment score": 0.368}
{"Substitution": "TLKMRRLVFDNQL [G4M]", "normalised enrichment score": 0.78}
{"Substitution": "TLAGRRLVFDNQL [K3A]", "normalised enrichment score": 0.379}
{"data": "Sample 2", "target": "ABI1, truncated, D143A, DHFR fusion (Arabidopsis thaliana)", "method": "DHFR PCA, deep sequencing", "medium": "yeast", "setting": "methotrexate growth selection, single substitutions", "added": "(+)-ABA 58 µM", "relative to": "wild-type fitted maximum", "direction": "higher = stronger binding", "starting sequence": "PYL1, truncated, DHFR fusion (Arabidopsis thaliana); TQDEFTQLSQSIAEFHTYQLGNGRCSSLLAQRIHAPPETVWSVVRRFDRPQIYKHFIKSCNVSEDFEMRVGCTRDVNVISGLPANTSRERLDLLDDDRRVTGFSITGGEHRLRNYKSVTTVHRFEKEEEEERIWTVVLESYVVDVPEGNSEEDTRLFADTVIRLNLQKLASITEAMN; partner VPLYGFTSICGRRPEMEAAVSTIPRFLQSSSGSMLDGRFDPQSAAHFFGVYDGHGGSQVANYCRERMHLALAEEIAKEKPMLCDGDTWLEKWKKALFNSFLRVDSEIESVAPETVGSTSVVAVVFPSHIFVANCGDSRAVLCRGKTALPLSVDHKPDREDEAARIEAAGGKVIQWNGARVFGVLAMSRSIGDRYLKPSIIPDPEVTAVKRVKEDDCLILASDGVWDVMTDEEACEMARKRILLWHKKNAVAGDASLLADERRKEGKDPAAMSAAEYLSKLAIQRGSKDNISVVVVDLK"}
{"Substitution": "N177R", "relative binding score": "72.4%"}
{"Substitution": "P83L", "relative binding score": "8.01%"}
{"Substitution": "G102A", "relative binding score": "76.2%"}
{"Substitution": "Y141N", "relative binding score": "6.41%"}
{"Substitution": "E151G", "relative binding score": "77.2%"}
{"Substitution": "F47C", "relative binding score": "-5.22%"}
{"Substitution": "R90W", "relative binding score": "6.8%"}
{"Substitution": "T120D", "relative binding score": "-1.58%"}
{"data": "Sample 3", "target": "Sox-I, HMG box (Salpingoeca helianthica)", "method": "Spec-seq", "form": "double-stranded DNA, one strand shown", "medium": "in vitro", "tested at": "not given", "setting": "whole probe, mean of replicates", "relative to": "not given", "direction": "lower = stronger binding", "Construct (chain)": "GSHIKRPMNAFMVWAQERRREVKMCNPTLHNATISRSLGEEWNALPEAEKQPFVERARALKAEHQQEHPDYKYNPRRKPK"}
{"Sequence": "GAGTCGTCTCGTCAGCACCATAGTTCCGTAGAGCACTCAGGTC", "relative binding energy [ln ratio]": 0.0591}
{"Sequence": "GAGTCGTCTCGTCAGCACCCCAGTTCCGTAGAGCACTCAGGTC", "relative binding energy [ln ratio]": -0.0138}
{"Sequence": "GAGTCGTCTCGTCAGCACAATCGTTCCGTAGAGCACTCAGGTC", "relative binding energy [ln ratio]": -1.83}
{"Sequence": "GAGTCGTCTCGTCAGCACCATTTTACCGTAGAGCACTCAGGTC", "relative binding energy [ln ratio]": 0.668}
{"data": "Other studies, line by line"}
{"Molecule": "PhoQ, residues 284 288 289 292 302 303 GANMMA", "target": "PhoP, residues 12 14 15 18 19 DLLYY (Escherichia coli, UniProt P23836)", "assay": "Sort-seq, measured: YFP reporter", "test system": "E. coli", "setting": "PhoQ-PhoP variant library, added: 10 µM Mg2+", "scale": "relative to: high Mg2+ state, higher = stronger signaling", "measurement": "fold induction", "result": 3.05}
{"note": "Excerpt of the above (sample 1):"}
{"Substitution": "TLKKRRLVFDNQL [G4K]", "normalised enrichment score": -0.273}
{"Substitution": "TLKGRRLPFDNQL [V8P]", "normalised enrichment score": 0.0159}
{"Substitution": "TLKGRMLVFDNQL [R6M]", "normalised enrichment score": 0.566}
{"Substitution": "TLKGRRLVFDDQL [N11D]", "normalised enrichment score": 0.368}
